Published values of several laboratories.
Protocols differ between the studies behind these lines. ± marks the error that the study gave.
Organism: Plasmodium falciparum

Cc1cc(Nc2ccc(Cl)cc2)n2nc(C(F)(F)F)nc2n1
EC50 (parasite growth, SYBR Green; 3D7): 39.4 nM

O[C@]12C=C(c3nccc4c3[nH]c3ccccc34)[C@@H]3CCN(CCCC/C=C\CC1)C[C@@]31C[C@@H]3/C=C\CCCCN3[C@H]12
IC50 ratio (D6, chloroquine-sensitive; relative to: compound over 4): > 3 fold

COCCN(C)C(C)C(=O)NC(Cc1ccc(-c2ccccc2)cc1)B(O)O (stereo not drawn)
IC50 (compound-selected recrudescent clone 1E9_F3; 72 h): 8.22 ± 0.65 µM

O=S(=O)(c1cccc(-c2ccc3ncnc(Nc4ccc(OCc5cccc(F)c5)c(Cl)c4)c3c2)c1)N1CCCCC1
EC50 (parasite growth, SYBR Green fluorescence; C235 (TM91C235), drug-resistant): 330 nM

COc1ccccc1-n1ccnc1SCC(=O)Nc1cc(C(F)(F)F)ccc1Cl
EC50 (parasite growth; Dd2): 2.27 ± 0.54 nM

Fc1cccc(COc2ccc(Nc3ncnc4ccc(-c5cccc(CN6CCCCC6)c5)cc34)cc2Cl)c1
EC50 (parasite growth, SYBR Green fluorescence; C235 (TM91C235), drug-resistant): 65 nM

Cc1cc(Cl)ccc1OC(C)C(=O)N1CCc2ccccc21 (stereo not drawn)
EC50 (parasite growth, SYBR Green; 3D7 wild type; 72 h): 312 ± 78 nM

CCCCCOc1ccc(-c2ccc3ncnc(Nc4ccc(OCc5cccc(F)c5)c(Cl)c4)c3c2)c(F)c1F
EC50 (parasite growth, SYBR Green; D6; blood stage): > 15000 nM

CC(NC(=O)c1cccc(C(c2ccccc2)N2C(=N)NC(C)(C(C)C)CC2=O)c1)c1ccccc1 (stereo not drawn)
EC50 (parasite growth; 3D7-compound.1 resistant line): 48.3 nM

O=S(=O)(c1cccc(-c2ccc3ncnc(Nc4ccc(OCc5cccc(F)c5)c(Cl)c4)c3c2)c1)N1CCCC1
EC50 (parasite growth, SYBR Green fluorescence; C235 (TM91C235), drug-resistant): 300 nM

CCN(CC)CCCC(C)Nc1ccnc2cc(Cl)ccc12 (stereo not drawn)
EC50 (parasite growth; Dd2-ATV): 431 ± 57.5 nM

CC(C)(C)OC(=O)N1CCN(c2ccc(-c3ccc4ncnc(Nc5ccc(OCc6cccc(F)c6)c(Cl)c5)c4c3)cc2)CC1
EC50 (parasite growth, SYBR Green fluorescence; C235 (TM91C235), drug-resistant): 1100 nM

C[C@H](Oc1ccc(C(=O)c2ccc(F)cc2)cc1)C(=O)N1CCc2ccc(C(F)(F)F)cc21
EC50 (parasite growth; Dd2): 1.8 ± 0.43 nM

OC(c1cc(C(F)(F)F)nc2c(C(F)(F)F)cccc12)C1CCCCN1 (stereo not drawn)
EC50 (parasite growth; Dd2): 34.9 ± 0.5 nM

COc1ccccc1-n1c(SCC(=O)Nc2ccccc2F)nc2cccnc21
EC50 (parasite growth): 90.8 ± 68 nM

COc1cc2c3cc1Oc1cc(ccc1O)CC1c4c(cc(OC)c(O)c4Oc4ccc(cc4)CC3N(C)CC2)CCN1C (stereo not drawn)
IC50 (parasite growth, stage-specific treatment; 12 h, early to late trophozoite stage): 6.59 ± 0.16 µM

Cc1nc2ccc(-c3ccc(OC(F)(F)F)cc3)cc2c(O)c1C#N
EC50 (parasite growth, SYBR Green; 3D7; 72 h): 2170 nM

CCC1(CC)CC(=O)N(C2CCOc3ccc(C(=O)NC4CC(C)(C)Oc5ccccc54)cc32)C(=N)N1 (stereo not drawn)
EC50 (parasite growth; Dd2-NITD609): 0.4 nM

O=S(=O)(c1ccc(-c2ccc3ncnc(Nc4ccc(OCc5cccc(F)c5)cc4)c3c2)cc1)N1CCOCC1
EC50 (parasite growth, SYBR Green; D6; blood stage): 440 nM

C[C@H]1Cc2c([nH]c3cc(Cl)c(F)cc23)[C@@]2(N1)C(=O)Nc1ccc(Cl)cc12
EC50 (parasite growth; CAM3 REV): 1.4 ± 0.2 nM

Fc1cccc(COc2ccc(Nc3ncnc4ccc(-c5ccc(N6CCCCC6)cc5)cc34)cc2Cl)c1
EC50 (parasite growth, SYBR Green; D6; blood stage): 580 nM

Cc1nc2c(C#N)cccc2n1-c1ccc(C(=O)NC2CC2)s1
EC50 (parasite growth, SYBR Green; 3D7 wild type; 72 h): 6.88 ± 1.5 nM

O=S(=O)(c1ccc(-c2ccc3ncnc(Nc4ccc(OCc5ccccc5F)c(Cl)c4)c3c2)cc1)N1CCOCC1
EC50 (parasite growth, SYBR Green fluorescence; W2, drug-resistant): 570 nM

COC(=O)C1=CO[C@@H](C)[C@@H]2Cn3ccc4c5ccccc5nc-4c3C[C@H]12
resistance index (C2B, atovaquone-resistant; 72 h; relative to: C2B over 3D7): 0.6

Repeated from above:
O=S(=O)(c1ccc(-c2ccc3ncnc(Nc4ccc(OCc5ccccc5F)c(Cl)c4)c3c2)cc1)N1CCOCC1
EC50 (parasite growth, SYBR Green fluorescence; W2, drug-resistant): 570 nM

Cc1nc2ccc(-c3ccc(OC(F)(F)F)cc3)cc2c(O)c1C#N
EC50 (parasite growth, SYBR Green; 3D7; 72 h): 2170 nM

O=S(=O)(c1ccc(-c2ccc3ncnc(Nc4ccc(OCc5cccc(F)c5)cc4)c3c2)cc1)N1CCOCC1
EC50 (parasite growth, SYBR Green; D6; blood stage): 440 nM

Cc1cc(Cl)ccc1OC(C)C(=O)N1CCc2ccccc21 (stereo not drawn)
EC50 (parasite growth, SYBR Green; 3D7 wild type; 72 h): 312 ± 78 nM
